Assay results collected from several papers.
Lines come from different studies, so protocols differ. “And” joins repeats or separate records; there may be more than shown. ± marks the error that the study gave.
USP14: Ubiquitin carboxyl-terminal hydrolase 14 (USP14, Homo sapiens, UniProt P54578)
UniProt P51575, sequence (whole entry, looked up): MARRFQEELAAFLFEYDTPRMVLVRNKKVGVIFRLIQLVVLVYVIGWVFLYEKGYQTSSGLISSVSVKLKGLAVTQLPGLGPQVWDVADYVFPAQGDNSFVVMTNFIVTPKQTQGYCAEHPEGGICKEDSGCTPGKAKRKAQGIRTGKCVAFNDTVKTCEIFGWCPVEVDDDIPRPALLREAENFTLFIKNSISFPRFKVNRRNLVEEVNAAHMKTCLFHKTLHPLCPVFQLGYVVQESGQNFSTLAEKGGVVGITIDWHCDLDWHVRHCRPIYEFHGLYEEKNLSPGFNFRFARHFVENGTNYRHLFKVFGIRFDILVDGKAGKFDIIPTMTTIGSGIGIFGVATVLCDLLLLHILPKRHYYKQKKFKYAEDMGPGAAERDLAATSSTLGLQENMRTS
UniProt Q9ULT8, sequence (whole entry, looked up): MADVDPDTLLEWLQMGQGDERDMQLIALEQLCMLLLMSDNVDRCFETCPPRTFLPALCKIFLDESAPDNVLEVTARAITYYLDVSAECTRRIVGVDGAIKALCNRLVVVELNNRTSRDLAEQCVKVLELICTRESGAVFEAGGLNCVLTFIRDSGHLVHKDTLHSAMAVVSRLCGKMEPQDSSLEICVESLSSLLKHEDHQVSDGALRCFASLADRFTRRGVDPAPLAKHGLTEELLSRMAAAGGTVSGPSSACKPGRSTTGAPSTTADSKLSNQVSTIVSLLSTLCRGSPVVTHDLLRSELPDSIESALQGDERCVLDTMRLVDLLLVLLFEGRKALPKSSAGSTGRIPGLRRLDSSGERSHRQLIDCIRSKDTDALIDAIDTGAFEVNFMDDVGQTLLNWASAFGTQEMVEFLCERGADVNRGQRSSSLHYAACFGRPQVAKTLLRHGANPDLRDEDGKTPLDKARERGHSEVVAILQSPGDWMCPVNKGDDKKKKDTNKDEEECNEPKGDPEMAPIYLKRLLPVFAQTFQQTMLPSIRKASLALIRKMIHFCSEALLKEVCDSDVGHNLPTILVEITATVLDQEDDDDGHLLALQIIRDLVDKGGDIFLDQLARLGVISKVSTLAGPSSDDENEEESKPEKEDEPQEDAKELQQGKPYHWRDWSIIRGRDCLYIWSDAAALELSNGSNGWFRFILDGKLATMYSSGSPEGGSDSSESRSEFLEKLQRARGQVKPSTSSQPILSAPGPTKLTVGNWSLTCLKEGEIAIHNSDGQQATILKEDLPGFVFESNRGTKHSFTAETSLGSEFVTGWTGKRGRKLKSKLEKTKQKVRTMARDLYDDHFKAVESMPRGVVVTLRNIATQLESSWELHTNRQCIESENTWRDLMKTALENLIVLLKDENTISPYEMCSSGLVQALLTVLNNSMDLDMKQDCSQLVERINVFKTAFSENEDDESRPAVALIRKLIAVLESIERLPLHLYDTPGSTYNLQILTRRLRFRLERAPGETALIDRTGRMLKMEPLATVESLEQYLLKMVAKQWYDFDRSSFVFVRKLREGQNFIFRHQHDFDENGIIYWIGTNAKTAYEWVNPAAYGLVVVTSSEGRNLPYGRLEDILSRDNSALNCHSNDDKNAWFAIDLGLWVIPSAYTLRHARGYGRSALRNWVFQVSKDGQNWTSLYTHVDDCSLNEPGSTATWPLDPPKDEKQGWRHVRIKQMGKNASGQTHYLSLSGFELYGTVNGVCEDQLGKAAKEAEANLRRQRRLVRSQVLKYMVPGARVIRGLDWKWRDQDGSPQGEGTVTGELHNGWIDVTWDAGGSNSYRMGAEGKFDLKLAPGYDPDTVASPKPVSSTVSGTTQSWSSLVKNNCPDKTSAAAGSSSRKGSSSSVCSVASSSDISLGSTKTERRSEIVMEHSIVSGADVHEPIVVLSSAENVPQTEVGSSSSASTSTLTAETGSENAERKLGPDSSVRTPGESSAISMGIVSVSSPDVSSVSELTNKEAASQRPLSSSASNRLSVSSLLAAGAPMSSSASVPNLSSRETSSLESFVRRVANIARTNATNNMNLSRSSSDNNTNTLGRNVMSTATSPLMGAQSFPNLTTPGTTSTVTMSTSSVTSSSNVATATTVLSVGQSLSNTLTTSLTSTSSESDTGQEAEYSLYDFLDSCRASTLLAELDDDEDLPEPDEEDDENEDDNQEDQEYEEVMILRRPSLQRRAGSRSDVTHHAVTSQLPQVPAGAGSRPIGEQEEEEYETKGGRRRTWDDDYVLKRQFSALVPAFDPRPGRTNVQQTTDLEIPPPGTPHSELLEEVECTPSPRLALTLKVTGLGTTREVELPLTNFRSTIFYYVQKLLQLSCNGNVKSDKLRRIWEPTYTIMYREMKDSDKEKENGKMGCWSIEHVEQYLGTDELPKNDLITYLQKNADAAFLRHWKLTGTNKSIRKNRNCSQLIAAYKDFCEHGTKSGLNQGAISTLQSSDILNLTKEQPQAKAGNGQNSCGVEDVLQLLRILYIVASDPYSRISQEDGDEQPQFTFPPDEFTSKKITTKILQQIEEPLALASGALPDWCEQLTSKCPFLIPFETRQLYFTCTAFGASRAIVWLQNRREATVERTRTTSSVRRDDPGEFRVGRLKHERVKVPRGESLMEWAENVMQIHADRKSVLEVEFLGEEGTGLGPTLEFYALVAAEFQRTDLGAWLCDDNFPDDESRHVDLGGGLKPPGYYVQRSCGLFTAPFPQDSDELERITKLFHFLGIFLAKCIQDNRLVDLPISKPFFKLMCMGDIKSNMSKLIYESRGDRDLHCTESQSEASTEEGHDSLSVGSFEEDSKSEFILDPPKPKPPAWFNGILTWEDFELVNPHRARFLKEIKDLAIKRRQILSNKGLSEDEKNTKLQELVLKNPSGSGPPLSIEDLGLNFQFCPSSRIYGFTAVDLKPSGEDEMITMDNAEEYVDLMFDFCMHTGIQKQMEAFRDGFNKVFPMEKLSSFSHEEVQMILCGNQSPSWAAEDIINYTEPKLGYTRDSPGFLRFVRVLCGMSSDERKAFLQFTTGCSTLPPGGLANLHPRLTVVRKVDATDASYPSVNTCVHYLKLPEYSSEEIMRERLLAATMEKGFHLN
UniProt P54578, sequence (whole entry, looked up): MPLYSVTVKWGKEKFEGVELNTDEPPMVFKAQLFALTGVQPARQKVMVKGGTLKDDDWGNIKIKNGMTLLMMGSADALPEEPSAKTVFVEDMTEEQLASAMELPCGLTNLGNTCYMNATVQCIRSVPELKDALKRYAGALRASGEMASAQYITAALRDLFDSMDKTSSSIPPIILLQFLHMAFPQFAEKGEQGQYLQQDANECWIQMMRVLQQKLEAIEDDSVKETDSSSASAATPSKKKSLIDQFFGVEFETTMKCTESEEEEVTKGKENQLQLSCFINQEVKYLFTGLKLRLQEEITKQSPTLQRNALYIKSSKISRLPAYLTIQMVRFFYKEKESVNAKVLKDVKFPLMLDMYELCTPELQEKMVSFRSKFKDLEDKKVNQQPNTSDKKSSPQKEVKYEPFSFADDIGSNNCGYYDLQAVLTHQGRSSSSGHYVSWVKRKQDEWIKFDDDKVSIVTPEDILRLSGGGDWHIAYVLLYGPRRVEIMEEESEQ
UniProt P40337, sequence (whole entry, looked up): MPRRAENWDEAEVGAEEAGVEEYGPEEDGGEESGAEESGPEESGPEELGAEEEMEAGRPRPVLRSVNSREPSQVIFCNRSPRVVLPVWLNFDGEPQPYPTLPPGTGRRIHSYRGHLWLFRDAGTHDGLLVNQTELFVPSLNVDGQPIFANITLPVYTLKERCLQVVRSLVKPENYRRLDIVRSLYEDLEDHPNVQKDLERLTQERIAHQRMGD
UniProt Q13148, sequence (whole entry, looked up): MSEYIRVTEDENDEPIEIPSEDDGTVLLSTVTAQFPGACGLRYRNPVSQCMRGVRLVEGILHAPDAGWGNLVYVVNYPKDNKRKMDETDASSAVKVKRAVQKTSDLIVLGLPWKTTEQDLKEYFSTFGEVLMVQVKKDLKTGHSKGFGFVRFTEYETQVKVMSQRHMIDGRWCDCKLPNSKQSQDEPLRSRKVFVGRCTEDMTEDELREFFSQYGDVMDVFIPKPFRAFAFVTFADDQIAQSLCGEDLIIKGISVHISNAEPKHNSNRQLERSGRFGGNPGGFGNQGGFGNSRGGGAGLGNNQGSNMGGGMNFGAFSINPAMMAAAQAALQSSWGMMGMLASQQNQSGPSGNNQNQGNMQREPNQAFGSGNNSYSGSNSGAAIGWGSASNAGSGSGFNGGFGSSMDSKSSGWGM
UniProt P37288, sequence (whole entry, looked up): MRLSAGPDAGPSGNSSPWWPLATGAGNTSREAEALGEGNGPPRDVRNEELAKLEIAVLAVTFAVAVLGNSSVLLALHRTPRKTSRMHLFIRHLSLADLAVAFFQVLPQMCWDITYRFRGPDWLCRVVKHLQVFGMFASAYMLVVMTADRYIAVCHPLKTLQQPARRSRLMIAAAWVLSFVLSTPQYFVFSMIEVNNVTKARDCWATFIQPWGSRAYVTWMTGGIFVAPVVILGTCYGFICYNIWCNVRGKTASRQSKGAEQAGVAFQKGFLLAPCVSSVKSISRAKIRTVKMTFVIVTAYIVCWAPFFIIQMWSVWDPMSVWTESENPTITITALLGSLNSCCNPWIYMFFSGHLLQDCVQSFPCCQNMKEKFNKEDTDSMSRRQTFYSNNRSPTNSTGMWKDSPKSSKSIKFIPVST
UniProt P13073, sequence (whole entry, looked up): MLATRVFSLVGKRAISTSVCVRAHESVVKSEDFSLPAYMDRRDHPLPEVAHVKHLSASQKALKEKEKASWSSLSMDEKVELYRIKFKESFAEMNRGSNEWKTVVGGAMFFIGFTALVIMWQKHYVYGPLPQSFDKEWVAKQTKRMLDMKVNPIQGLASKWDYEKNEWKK

SMILES | target | assay | system | setting | how to read | endpoint | result
CC(C)CCN1COc2ccc3c4c(oc3c2C1)C(=O)c1ccccc1C4=O | USP14 | enzyme activity, inhibitor | – | 17 µM | – | inhibition | 30%
COC(=O)Cc1cc2c(cc1C(=O)c1cccc(I)c1)OCO2 | Gria2/Glutamate receptor 3 (Rattus norvegicus, UniProt P19491+P19492) | glutamate-evoked current, whole-cell patch clamp | HEK-293T | concentration not given, weighted tau, 500 ms pulse, with: glutamate | – | desensitization time constant | 2.4 ± 0.2 ms
O=C1c2sc(-c3ccc(N4CCC(CO)CC4)nc3F)nc2CCN1c1cccnc1 | TAR DNA-binding protein 43, aggregated (TARDBP, Homo sapiens, UniProt Q13148) | radioligand binding | control brain sarkosyl-insoluble extract | 142.86 nM | – | specific binding | -0.362 nM
CCOC(=O)C1CCCN(CCOC(=O)C(c2ccc(OC)cc2)c2ccc(OC)cc2)C1 (stereo not shown) | Sodium- and chloride-dependent glycine transporter 1 (SLC6A9, Homo sapiens, UniProt P48067) | cell-free assay | – | 1 µM | – | remaining signal | 80.9%
N#CN1CC[C@H](C(=O)Nc2nc3c(s2)CN(C(=O)Cn2cc(CNC(=O)CCCC[C@@H]4SC[C@@H]5NC(=O)N[C@@H]54)nn2)CC3)C1 | E3 ubiquitin-protein ligase HECTD1 (HECTD1, Homo sapiens, UniProt Q9ULT8) | probe binding, affinity probe, neutravidin pull-down LC-MS/MS | HEK293T, cell lysate | 5 µM, 1 h, single replicate, unit not given | higher = more pulled down | iBAQ abundance | 843000 and 495000 and 798000
COc1ncc2nc(C)n(Cc3ncc(S(N)(=O)=O)cc3F)c2c1-c1ccccc1 | Vasopressin V1a receptor (AVPR1A, Homo sapiens, UniProt P37288) | agonist, cell-based | – | 10 µM | – | activation | 11.4%
Cc1ncsc1-c1ccc(CNC(=O)[C@@H]2C[C@@H](O)CN2C(=O)[C@@H](NC(=O)C2(F)CC2)C(C)(C)C)c(OCCC2CN(c3nc(NCC(C)(C)C4(O)CCOC4)nc(N4CCC[C@H]4Cn4ccnn4)n3)C2)c1 (stereo partly shown) | VHL/BRD9, with Elongin B/C (Homo sapiens, UniProt P40337+Q9H8M2) | native mass spectrometry | – | 5 µM, with: BRD9 and VCB at 5 µM | relative to: unbound BRD9 | ternary complex formation | 0%
O=C(Nc1cc(C(=O)Nc2ccc(S(=O)(=O)O)cc2S(=O)(=O)O)cc(C(=O)Nc2ccc(S(=O)(=O)O)cc2S(=O)(=O)O)c1)Nc1cc(C(=O)Nc2ccc(S(=O)(=O)O)cc2S(=O)(=O)O)cc(C(=O)Nc2ccc(S(=O)(=O)O)cc2S(=O)(=O)O)c1 | P2X purinoceptor 1 (P2RX1, Homo sapiens, UniProt P51575) | antagonist, calcium influx | – | 31.6 nM, with: submaximal α,β-methylene ATP | relative to: ionomycin response | calcium influx | 99% and 60.6% and 88.8% and 83.7%
O=C1c2ccccc2-c2nc3nonc3nc21 | USP14 | enzyme activity, inhibitor | – | 17 µM | – | inhibition | 31%
Cc1cc(C)cc(COc2cc3c(cc2OCc2cc(C)cc(C)c2)C2CC(O)(Cc4cn(CCOCCOCCNC(=O)CCCCC5SCC6NC(=O)NC65)nn4)CC(C)N2CC3)c1 (stereo not shown) | Cytochrome c oxidase subunit 4 isoform 1, mitochondrial (Homo sapiens, UniProt P13073) | biotinylated probe pull-down, measured: COX4I1 | – | 10 µM probe | relative to: heavy over light | SILAC ratio | 1.44

Some of these lines once more:
SMILES | target | assay | system | setting | how to read | endpoint | result
COC(=O)Cc1cc2c(cc1C(=O)c1cccc(I)c1)OCO2 | Gria2/Glutamate receptor 3 (Rattus norvegicus, UniProt P19491+P19492) | glutamate-evoked current, whole-cell patch clamp | HEK-293T | concentration not given, weighted tau, 500 ms pulse, with: glutamate | – | desensitization time constant | 2.4 ± 0.2 ms
